Assay results of several laboratories.
Each line is one published result; not all experiments were run side by side. ± gives the spread as reported.
Mc1r: Melanocyte-stimulating hormone receptor (Mc1r, Mus musculus, UniProt Q01727)
Chain of UniProt Q01727 (whole entry, looked up): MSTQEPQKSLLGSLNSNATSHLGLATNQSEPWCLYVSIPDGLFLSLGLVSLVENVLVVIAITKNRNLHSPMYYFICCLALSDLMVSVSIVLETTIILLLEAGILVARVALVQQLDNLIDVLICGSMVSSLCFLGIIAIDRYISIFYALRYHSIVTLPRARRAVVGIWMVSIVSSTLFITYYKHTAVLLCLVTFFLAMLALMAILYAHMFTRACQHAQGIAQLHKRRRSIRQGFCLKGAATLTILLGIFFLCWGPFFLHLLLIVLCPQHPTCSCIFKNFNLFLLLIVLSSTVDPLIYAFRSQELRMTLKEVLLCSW
Ptger2: Prostaglandin E2 receptor EP2 subtype (Ptger2, Rattus norvegicus, UniProt Q62928)
Chain of UniProt Q62928 (whole entry, looked up): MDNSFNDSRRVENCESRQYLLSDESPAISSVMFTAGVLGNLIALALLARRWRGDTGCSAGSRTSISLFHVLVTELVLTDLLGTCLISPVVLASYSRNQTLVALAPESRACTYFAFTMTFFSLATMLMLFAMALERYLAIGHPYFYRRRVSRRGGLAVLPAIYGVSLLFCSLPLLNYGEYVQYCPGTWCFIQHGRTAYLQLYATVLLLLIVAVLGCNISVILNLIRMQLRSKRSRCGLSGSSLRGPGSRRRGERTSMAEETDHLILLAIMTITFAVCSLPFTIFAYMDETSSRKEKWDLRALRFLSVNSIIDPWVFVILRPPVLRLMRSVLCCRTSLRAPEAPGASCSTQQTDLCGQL
DRD2: D(2) dopamine receptor (DRD2, Homo sapiens, UniProt P14416)
Chain of UniProt P14416 (whole entry, looked up): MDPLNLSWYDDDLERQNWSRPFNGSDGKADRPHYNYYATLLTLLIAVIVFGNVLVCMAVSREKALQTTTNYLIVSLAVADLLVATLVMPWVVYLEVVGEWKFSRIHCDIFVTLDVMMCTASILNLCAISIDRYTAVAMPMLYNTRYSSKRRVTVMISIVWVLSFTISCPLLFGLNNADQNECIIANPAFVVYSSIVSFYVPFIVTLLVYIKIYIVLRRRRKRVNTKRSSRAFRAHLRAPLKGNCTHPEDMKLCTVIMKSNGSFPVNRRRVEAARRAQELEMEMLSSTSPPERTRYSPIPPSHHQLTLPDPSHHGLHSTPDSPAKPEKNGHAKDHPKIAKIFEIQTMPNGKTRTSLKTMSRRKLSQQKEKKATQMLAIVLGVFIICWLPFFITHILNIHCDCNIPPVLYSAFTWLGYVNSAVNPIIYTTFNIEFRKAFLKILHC
Chain of UniProt Q9NR97 (whole entry, looked up): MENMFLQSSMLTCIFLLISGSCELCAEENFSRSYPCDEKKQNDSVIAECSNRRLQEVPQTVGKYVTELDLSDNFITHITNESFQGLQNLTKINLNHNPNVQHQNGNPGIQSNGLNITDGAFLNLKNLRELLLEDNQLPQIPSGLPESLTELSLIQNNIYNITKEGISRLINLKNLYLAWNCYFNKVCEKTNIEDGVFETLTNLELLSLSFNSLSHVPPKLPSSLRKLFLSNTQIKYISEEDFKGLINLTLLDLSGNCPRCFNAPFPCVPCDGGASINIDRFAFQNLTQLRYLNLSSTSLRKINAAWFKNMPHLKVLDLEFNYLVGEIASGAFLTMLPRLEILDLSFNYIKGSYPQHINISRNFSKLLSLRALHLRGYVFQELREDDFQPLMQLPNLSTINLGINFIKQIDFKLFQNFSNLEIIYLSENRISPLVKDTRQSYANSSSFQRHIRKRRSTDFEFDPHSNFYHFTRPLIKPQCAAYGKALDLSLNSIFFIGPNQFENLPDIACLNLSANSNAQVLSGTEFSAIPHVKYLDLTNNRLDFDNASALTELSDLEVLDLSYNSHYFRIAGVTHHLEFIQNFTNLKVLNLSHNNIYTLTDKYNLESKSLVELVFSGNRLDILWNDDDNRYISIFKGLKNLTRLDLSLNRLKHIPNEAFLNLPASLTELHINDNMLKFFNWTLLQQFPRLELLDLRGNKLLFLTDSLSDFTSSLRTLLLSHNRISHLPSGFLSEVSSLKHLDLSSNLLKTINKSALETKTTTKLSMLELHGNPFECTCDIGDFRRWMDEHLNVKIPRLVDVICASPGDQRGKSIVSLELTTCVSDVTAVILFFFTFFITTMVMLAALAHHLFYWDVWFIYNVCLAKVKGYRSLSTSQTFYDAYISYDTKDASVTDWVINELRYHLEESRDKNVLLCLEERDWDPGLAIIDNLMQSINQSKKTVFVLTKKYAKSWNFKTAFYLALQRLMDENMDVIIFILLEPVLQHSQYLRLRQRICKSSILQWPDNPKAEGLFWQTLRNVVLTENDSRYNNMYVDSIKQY
Chain of UniProt Q6B856 (whole entry, looked up): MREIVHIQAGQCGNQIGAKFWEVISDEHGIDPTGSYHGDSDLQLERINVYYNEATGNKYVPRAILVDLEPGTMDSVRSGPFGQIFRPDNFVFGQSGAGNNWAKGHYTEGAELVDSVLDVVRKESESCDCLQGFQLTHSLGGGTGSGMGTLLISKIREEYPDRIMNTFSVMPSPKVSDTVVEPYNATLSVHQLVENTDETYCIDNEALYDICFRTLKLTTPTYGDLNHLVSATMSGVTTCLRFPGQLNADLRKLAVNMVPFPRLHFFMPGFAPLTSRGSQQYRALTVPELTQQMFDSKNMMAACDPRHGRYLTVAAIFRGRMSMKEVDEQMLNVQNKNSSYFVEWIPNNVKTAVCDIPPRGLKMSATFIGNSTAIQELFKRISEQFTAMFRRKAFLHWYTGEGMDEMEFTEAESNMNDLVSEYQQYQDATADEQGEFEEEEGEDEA
Chain of UniProt O35433 (whole entry, unmodified, looked up): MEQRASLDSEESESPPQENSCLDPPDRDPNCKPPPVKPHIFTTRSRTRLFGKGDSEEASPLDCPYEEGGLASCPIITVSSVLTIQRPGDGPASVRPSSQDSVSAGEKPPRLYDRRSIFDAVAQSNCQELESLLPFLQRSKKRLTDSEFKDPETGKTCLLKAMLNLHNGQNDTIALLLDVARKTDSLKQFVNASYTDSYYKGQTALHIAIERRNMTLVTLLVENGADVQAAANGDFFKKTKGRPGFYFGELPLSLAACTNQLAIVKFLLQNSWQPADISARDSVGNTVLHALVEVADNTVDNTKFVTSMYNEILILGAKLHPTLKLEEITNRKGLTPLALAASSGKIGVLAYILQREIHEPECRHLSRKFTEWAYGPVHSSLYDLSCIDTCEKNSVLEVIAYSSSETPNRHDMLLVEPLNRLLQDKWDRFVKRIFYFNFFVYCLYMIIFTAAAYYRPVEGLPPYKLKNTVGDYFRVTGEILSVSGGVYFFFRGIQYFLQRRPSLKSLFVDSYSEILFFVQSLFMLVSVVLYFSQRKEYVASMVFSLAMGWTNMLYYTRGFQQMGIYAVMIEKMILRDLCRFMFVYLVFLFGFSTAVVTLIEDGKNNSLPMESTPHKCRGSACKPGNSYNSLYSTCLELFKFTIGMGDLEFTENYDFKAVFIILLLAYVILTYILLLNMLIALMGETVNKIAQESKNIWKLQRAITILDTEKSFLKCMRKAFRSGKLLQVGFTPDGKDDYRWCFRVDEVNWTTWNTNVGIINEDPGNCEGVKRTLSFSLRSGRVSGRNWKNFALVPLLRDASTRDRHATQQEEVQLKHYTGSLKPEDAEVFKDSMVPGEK
Chain of UniProt Q9Y5N1 (whole entry, looked up): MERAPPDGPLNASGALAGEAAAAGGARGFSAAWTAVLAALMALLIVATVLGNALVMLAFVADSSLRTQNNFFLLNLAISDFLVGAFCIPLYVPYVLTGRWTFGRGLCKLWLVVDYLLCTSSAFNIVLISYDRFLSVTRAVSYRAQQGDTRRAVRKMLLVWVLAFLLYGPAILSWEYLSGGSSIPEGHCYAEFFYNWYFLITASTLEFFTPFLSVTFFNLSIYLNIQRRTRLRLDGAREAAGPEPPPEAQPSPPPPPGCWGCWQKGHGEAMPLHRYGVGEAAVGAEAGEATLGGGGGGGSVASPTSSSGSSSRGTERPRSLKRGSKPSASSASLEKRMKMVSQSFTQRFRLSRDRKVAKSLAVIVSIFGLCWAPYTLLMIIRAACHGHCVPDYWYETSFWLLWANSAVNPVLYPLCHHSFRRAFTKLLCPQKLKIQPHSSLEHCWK
Chain of UniProt P81947 (whole entry, looked up): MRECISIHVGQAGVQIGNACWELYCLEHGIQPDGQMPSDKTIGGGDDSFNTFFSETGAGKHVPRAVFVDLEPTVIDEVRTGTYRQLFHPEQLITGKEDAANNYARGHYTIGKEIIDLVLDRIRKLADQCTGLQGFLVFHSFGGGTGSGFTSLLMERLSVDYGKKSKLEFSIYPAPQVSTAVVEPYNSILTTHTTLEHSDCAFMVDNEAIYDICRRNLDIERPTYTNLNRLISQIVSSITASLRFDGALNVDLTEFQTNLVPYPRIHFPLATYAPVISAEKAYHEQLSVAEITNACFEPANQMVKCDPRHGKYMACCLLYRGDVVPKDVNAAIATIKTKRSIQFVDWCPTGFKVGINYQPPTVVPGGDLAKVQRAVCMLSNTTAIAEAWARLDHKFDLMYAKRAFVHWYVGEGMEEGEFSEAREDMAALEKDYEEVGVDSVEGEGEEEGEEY
Chain of UniProt Q96RI1 (whole entry, looked up): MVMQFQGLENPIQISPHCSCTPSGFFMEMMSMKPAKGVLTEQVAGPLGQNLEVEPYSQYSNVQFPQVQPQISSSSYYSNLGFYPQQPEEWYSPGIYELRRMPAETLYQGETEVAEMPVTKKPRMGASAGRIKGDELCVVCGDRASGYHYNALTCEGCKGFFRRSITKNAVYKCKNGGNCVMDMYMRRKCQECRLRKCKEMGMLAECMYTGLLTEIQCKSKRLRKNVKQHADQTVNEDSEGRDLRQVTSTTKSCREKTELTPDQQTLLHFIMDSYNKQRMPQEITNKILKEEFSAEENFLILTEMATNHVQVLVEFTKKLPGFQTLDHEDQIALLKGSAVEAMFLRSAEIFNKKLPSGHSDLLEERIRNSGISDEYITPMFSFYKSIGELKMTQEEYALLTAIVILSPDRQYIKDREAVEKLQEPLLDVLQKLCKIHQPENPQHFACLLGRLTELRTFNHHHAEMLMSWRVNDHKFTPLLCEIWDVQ

Structure (SMILES) | target | assay | system | setting | EC50
CCCNc1nc2c(N)nc3ccccc3c2s1 | Toll-like receptor 8 (TLR8, Homo sapiens, UniProt Q9NR97) | reporter gene, agonist |  |  | 3940 nM
CCCC[C@H](NC(=O)[C@H](CO)NC(=O)[C@H](Cc1ccc(O)cc1)NC(=O)[C@H](C)NC(C)=O)C(=O)N[C@@H](CCC(=O)O)C(=O)N[C@@H](Cc1c[nH]cn1)C(=O)N[C@H](Cc1ccccc1)C(=O)N[C@@H](CCCNC(=N)N)C(=O)N[C@@H](Cc1c[nH]c2ccccc12)C(=O)NCC(=O)N[C@@H](CCCCN)C(=O)N1CCC[C@H]1C(=O)N[C@H](C(N)=O)C(C)C | Mc1r |  |  |  | 0.016 ± 0.007 nM
CCC1=C(O)c2c(oc(-c3ccc(O)c4ccccc34)cc2=O)C(CC)(CC)C1=O | Tubulin alpha-1B chain/TUBB2B (Bos taurus, UniProt P81947+Q6B856) |  |  |  | 3400 nM
CCCCC[C@H](O)/C=C/[C@H]1CCC(=O)[C@@H]1CCCCCCC(=O)O | Ptger2 | reporter gene, agonist |  |  | 37.2 nM
CC(=O)N[C@@H](CO)C(=O)N[C@@H](Cc1ccc(O)cc1)C(=O)N[C@@H](CO)C(=O)N[C@@H](C)C(=O)N[C@@H](CCC(=O)O)C(=O)N[C@@H](Cc1c[nH]cn1)C(=O)N[C@@H](Cc1ccccc1)C(=O)N[C@@H](CCCNC(=N)N)C(=O)N[C@@H](Cc1c[nH]c2ccccc12)C(=O)NCC(=O)N[C@@H](CCCCN)C(=O)N1CCC[C@H]1C(=O)N[C@H](C(N)=O)C(C)C | Mc1r |  |  |  | 12400 ± 10800 nM
O=c1c(O)c(-c2ccc(O)c(O)c2)oc2cc(O)cc(O)c12 | Kcnh1 (Mus musculus, UniProt Q60603) | deactivation time constant, inside-out patch clamp | Xenopus oocytes |  | 6600 ± 3800 nM
Cc1nc2ccc(OCCCCN3CCC(c4cccc(Cl)c4Cl)CC3)cc2s1 | DRD2 | cAMP, agonist, luciferase |  |  | 88 nM
CCC#CC[C@H](C)[C@H](O)/C=C/[C@H]1CC(F)(F)C(=O)N1CCCCCCC(=O)O | Ptger2 | reporter gene, agonist |  |  | > 10000 nM
CNc1nc2cc(OCCCCN3CCC(c4cccc(Cl)c4Cl)CC3)ccc2s1 | DRD2 | cAMP, agonist, luciferase |  |  | 50 nM
CCCCCCCC(=O)OC[C@H](COP(=O)(O)O[C@H]1[C@H](O)[C@@H](O)[C@H](OP(=O)(O)O)[C@@H](O)[C@H]1O)OC(=O)CCCCCCC | Transient receptor potential cation channel subfamily V member 1 (Trpv1, Rattus norvegicus, UniProt O35433, R721A) | agonist, inside-out patch clamp | plasma membrane inner leaflet |  | ~0.007 mol %
CSCC[C@H](NC(=O)[C@H](CCCN=C(N)N)NC(=O)[C@H](Cc1ccc(O)cc1)NC(=O)[C@@H]1CCCN1C(=O)CNC(=O)[C@H](CCC(=O)O)NC(=O)[C@H](CC(=O)O)NC(=O)[C@H](CCCCN)NC(=O)[C@H](CCCCN)NC(=O)[C@H](CCC(=O)O)NC(=O)[C@H](C)N)C(=O)N[C@@H](CCC(=O)O)C(=O)N[C@@H](Cc1c[nH]cn1)C(=O)N[C@@H](Cc1ccccc1)C(=O)N[C@@H](CCCN=C(N)N)C(=O)N[C@@H](Cc1c[nH]c2ccccc12)C(=O)NCC(=O)N[C@@H](CO)C(=O)N1CCC[C@H]1C(=O)N1CCC[C@H]1C(=O)N[C@@H](CCCCN)C(=O)N[C@@H](CC(=O)O)C(=O)O | Probable G-protein coupled receptor 139 (GPR139, Homo sapiens, UniProt Q6DWJ6) | calcium signal, agonist, fluorescence |  |  | 6300 nM
BP(=O)(OC[C@H]1O[C@@H](n2cnc3c(N)ncnc32)[C@H](O)[C@@H]1O)OP(=O)(O)OP(=O)(O)OP(=O)(O)OC[C@H]1O[C@@H](n2cnc3c(N)ncnc32)[C@H](O)[C@@H]1O (stereo partly drawn) | P2Y purinoceptor 6 (Rattus norvegicus, UniProt Q63371) | intracellular calcium rise, agonist | 1321-N1 transfected with rat P2Y6 | 37 °C | > 100000 nM
O=C(NCCCOCCOCCOCCCNC(=S)Nc1ccc2c(c1)C(=O)OC21c2ccc(O)cc2Oc2cc(O)ccc21)c1ccc(-c2csc(N3N=C(c4ccccc4)C(=NNc4nccs4)C3=O)n2)cc1 | Apoptosis regulator BAX (BAX, Homo sapiens, UniProt Q07812) | binding, direct fluorescence polarization |  | target protein titrated | 144 nM
CNc1nc2cc(OCCCCN3CCN(c4cccc5c4OCCN5)CC3)ccc2s1 | DRD2 | cAMP, agonist, luciferase |  |  | 1.1 nM
NC[C@H](O)c1ccc(O)c(O)c1 | Alpha-2C adrenergic receptor (ADRA2C, Homo sapiens, UniProt P18825) | G protein activation, agonist, BRET, item: Gαi1 | HEK293T, transfected | Emax below 50% | 90 ± 30 nM
N=C(NCCCCCCCCCCNC(N)=O)NCCCc1c[nH]cn1 | Histamine H3 receptor (HRH3, Homo sapiens, UniProt Q9Y5N1) | GTPγS binding, agonist |  | cell membranes | 26900 nM
CCCC[C@H](NC(=O)[C@H](CO)NC(=O)[C@H](Cc1ccc(O)cc1)NC(=O)[C@H](CO)NC(C)=O)C(=O)N[C@@H](CCC(=O)O)C(=O)N[C@@H](Cc1c[nH]cn1)C(=O)N[C@H](Cc1ccccc1)C(=O)N[C@@H](CCCNC(=N)N)C(=O)N[C@@H](C)C(=O)NCC(=O)N[C@@H](CCCCN)C(=O)N1CCC[C@H]1C(=O)N[C@H](C(N)=O)C(C)C | Mc1r |  |  |  | 4.05 ± 0.72 nM
CCC#CC[C@H](C)[C@H](O)/C=C/[C@H]1CCC(=O)N1CCCCCCC(=O)O | Ptger2 | cAMP, agonist |  |  | > 10000 nM
Cc1nc2cc(OCCCCN3CCN(c4cccc5c4OCCN5)CC3)ccc2s1 | DRD2 | cAMP, agonist, luciferase |  |  | 5.2 nM
CSCC[C@H](NC(=O)[C@H](CO)NC(=O)[C@H](Cc1ccc(O)cc1)NC(=O)[C@H](C)NC(C)=O)C(=O)N[C@@H](CCC(=O)O)C(=O)N[C@@H](Cc1c[nH]cn1)C(=O)N[C@@H](Cc1ccccc1)C(=O)N[C@@H](CCCNC(=N)N)C(=O)N[C@@H](Cc1c[nH]c2ccccc12)C(=O)NCC(=O)N[C@@H](CCCCN)C(=O)N1CCC[C@H]1C(=O)N[C@H](C(N)=O)C(C)C | Mc1r |  |  |  | 165 ± 30 nM
CCc1nc2cc(OCCCCN3CCC(c4cccc(Cl)c4Cl)CC3)ccc2s1 | DRD2 | cAMP, agonist, luciferase |  |  | 98 nM
C[C@H](CCC(=O)N[C@@H](Cc1ccc(O)cc1)C(=O)O)[C@H]1CC[C@H]2[C@@H]3[C@H](O)C[C@@H]4C[C@H](O)CC[C@]4(C)[C@H]3CC[C@]12C | Bile acid receptor, ligand-binding domain (NR1H4, Homo sapiens, UniProt Q96RI1) | coactivator recruitment, agonist, LanthaScreen TR-FRET |  | 5.5 h, together with: SRC1 peptide | 2800 nM
Nc1nc(F)nc2c1ncn2[C@@H]1O[C@H](COP(=O)(O)OP(=O)(O)OP(=O)(O)O)[C@@H](O)[C@@H]1O | Ribonucleoside-diphosphate reductase large subunit (Homo sapiens, UniProt P23921) |  |  |  | 4600 ± 800 nM
CCCC[C@H](NC(=O)[C@H](CO)NC(=O)[C@H](Cc1ccc(O)cc1)NC(=O)[C@H](CO)NC(C)=O)C(=O)N[C@@H](CCC(=O)O)C(=O)N[C@@H](Cc1c[nH]cn1)C(=O)N[C@H](Cc1ccccc1)C(=O)N[C@@H](CCCNC(=N)N)C(=O)N[C@@H](Cc1c[nH]c2ccccc12)C(=O)NCC(=O)N[C@@H](CCCCN)C(=O)N1CCC[C@H]1C(=O)N[C@@H](C)C(N)=O | Mc1r |  |  |  | 0.058 ± 0.021 nM

A few entries again:
Structure (SMILES) | target | assay | system | setting | EC50
O=C(NCCCOCCOCCOCCCNC(=S)Nc1ccc2c(c1)C(=O)OC21c2ccc(O)cc2Oc2cc(O)ccc21)c1ccc(-c2csc(N3N=C(c4ccccc4)C(=NNc4nccs4)C3=O)n2)cc1 | Apoptosis regulator BAX (BAX, Homo sapiens, UniProt Q07812) | binding, direct fluorescence polarization |  | target protein titrated | 144 nM
NC[C@H](O)c1ccc(O)c(O)c1 | Alpha-2C adrenergic receptor (ADRA2C, Homo sapiens, UniProt P18825) | G protein activation, agonist, BRET, item: Gαi1 | HEK293T, transfected | Emax below 50% | 90 ± 30 nM
